# Assay results of several laboratories.
# Compare with care: the assays were run in different laboratories. ± marks the error that the study gave.
# TMPRSS2: Transmembrane protease serine 2 (TMPRSS2, Homo sapiens, UniProt O15393)
# FGFR1: Fibroblast growth factor receptor 1 (FGFR1, Homo sapiens, UniProt P11362)
# AGTR1: Type-1 angiotensin II receptor (AGTR1, Homo sapiens, UniProt P30556)
# Mycosin-1: Mycosin-1 (Mycolicibacterium thermoresistibile, UniProt G7CDQ2)
# TMPRSS11D: Transmembrane protease serine 11D (TMPRSS11D, Homo sapiens, UniProt O60235)
# GP1 NS2B-NS3 protease: Genome polyprotein, NS2B-NS3 protease (GP1, West Nile virus, UniProt Q9Q6P4)
SMILES,target,assay,system,setting,how to read,inhibition
CC(=O)N[C@@H]1[C@@H](O)[C@H](O)[C@@H](CO)N[C@@H]1CP(=O)(O)OP(=O)(O)OC/C=C(/C)CC/C=C(\C)CCC=C(C)C,"Peptidoglycan glycosyltransferase (Clostridioides difficile, UniProt Q189X7)","transglycosylase activity, HPLC",,"100 µM, with: NBD-lipid II",,30%
Cc1ccc(C(=O)Nc2ccc(CN)cc2)c(O)c1,TMPRSS2,"enzyme activity, inhibitor, fluorescence",,10 µM,,79.7%
OC(c1ccc2c(c1)OC(F)(F)O2)c1c[nH]c2ncc(C(F)(F)F)cc12 (stereo not shown),FGFR1,"enzyme activity, inhibitor",,1 µM,,11%
CC(C)C1=CC23CCC4C(C)(C(=O)O)CCCC4(C)C2CC1C(C(=O)O)C3C(=O)O (stereo not shown),"Replication protein A 70 kDa DNA-binding subunit, with p53 (RPA1, Homo sapiens, UniProt P27694)","binding to p53, ELISA",,"100 µM, with: immobilized p53-GST, 250 nM RPA",,inhibited
CCOc1cccc(C(=O)Nc2ccc(-c3nc4ccccc4[nH]3)cc2)c1,"Heat shock protein HSP 90-beta, N-terminal domain (HSP90AB1, Homo sapiens, UniProt P08238)","binding, fluorescence polarization",,"10 µM, with: FITC-geldanamycin",,no inhibition
O=C(C[C@@H](Cc1c[nH]c2ccccc12)n1nncc1CNS(=O)(=O)c1ccc(-c2ccccc2)s1)NO,"ERAP2 (Homo sapiens, UniProt Q6P179)","enzyme activity, inhibitor, fluorescence",,100 µM,,67%
CCCCOC(=O)NS(=O)(=O)c1sc(CC(C)C)cc1-c1cc(F)cc(Cn2ccnc2)c1,AGTR1,"ligand displacement, radioligand",,"10 µM, cell membranes",,13%
FC1(F)Oc2ccc(Cc3c[nH]c4ncc(C(F)(F)F)cc34)cc2O1,FGFR1,"enzyme activity, inhibitor",,1 µM,,40%
N=C(N)NC(=N)NNc1ccc([N+](=O)[O-])cc1[N+](=O)[O-],Mycosin-1,"protease activity, inhibitor, quenched fluorescent peptide",,"150 µM, with: 20 µM fluorogenic peptide substrate",baseline: DMSO control,55.6%
CNS(=O)(=O)c1cc([N+](=O)[O-])ccc1NCCC(C)(C)C,"SLC12A2 (Homo sapiens, UniProt P55011)",chloride influx,HEK293 transfected with SLC12A2,100 µM,baseline: DMSO,28.6 ± 4.3%
Cc1cc(O)c(C=O)c2c1C(=O)Oc1c(CO)c(O)c3c(c1O2)C(O)OC3=O (stereo not shown),"PDE5A (Homo sapiens, UniProt O76074)","enzyme activity, inhibitor",,2.5 µg/mL,,45.8%
Cc1ccc2c(c1Br)C(O)(CC(=O)c1ccc3c(c1)OCO3)C(=O)N2 (stereo not shown),"Uncharacterized protein (Trypanosoma brucei brucei, UniProt Q386Q8)","enzyme activity, inhibitor, coupled colorimetric",Trypanosoma brucei,100 µM,,65%
FC(F)(F)c1cccc(Cc2c[nH]c3ncc(C(F)(F)F)cc23)c1,FGFR1,"enzyme activity, inhibitor",,0.1 µM,,10%
NCc1ccc(NC(=O)c2ccc3ccc(Cl)cc3c2O)cc1,TMPRSS2,"enzyme activity, inhibitor",,"10 µM, with: Boc-QAR-AMC",,< 20%
COc1cccc(C(O)c2c[nH]c3ncc(C(F)(F)F)cc23)c1 (stereo not shown),FGFR1,"enzyme activity, inhibitor",,1 µM,,78%
COc1cc(C(=O)NC2CCC(N3CCN(CC4CCC5(CCCC5)C4)CC3)CC2)c(F)cc1Nc1ncc2c(n1)N(C1CCCC1(F)F)CC(F)(F)C(=O)N2C (stereo not shown),"EPHA7 (Homo sapiens, UniProt Q15375)","cell-free assay, TR-FRET",,10 µM,,0.3%
COC(=O)c1cccc(-c2cc(C)c3ncc(C(N)=O)c(Nc4cccc(OC)c4)c3c2)c1,"PDEB1 (Trypanosoma brucei, UniProt Q8WQX9)","enzyme activity, inhibitor",,10 µM,,94%
O=C(c1ccncc1)N1N=C2/C(=C/c3ccc(Cl)cc3)CCCC2C1c1ccc(Cl)cc1 (stereo not shown),"PTGS2 (Homo sapiens, UniProt P35354)",enzyme activity,,concentration not given,,80.2%
CCc1nc2ccc(Cl)cn2c1C(=O)NCc1ccc2oc(-c3ccc(OC(F)(F)F)cc3)nc2c1,"MT-CYB (Bos taurus, UniProt P00157)",complex III activity,bovine heart submitochondrial particles,10 µM,,30%
CC(C)(C)c1ccc(O)c(C(=O)Nc2ccc(CN)cc2)c1,TMPRSS11D,"enzyme activity, fluorogenic substrate",,"10 µM, with: Boc-VPR-AMC",,< 20%
O=C(Nc1cccnc1)c1ccccc1OCc1ccccc1,"SGMS2 (Homo sapiens, UniProt Q8NHU3)","enzyme activity, inhibitor",,1 µM,,29%
Cc1ccc([N+](=O)[O-])cc1S(=O)(=O)N(C)/N=C/c1cnc2ccc(Br)cn12,"MAPK12 (Homo sapiens, UniProt P53778)","enzyme activity, inhibitor, radiometric",,0.2 µM,,59%
CC(C)=C1C=C2CCC3C(C)(C(=O)O)CCCC3(C)C2CC1 (stereo not shown),"RPA1 (Homo sapiens, UniProt P27694)","ssDNA binding, EMSA",,200 µM,,no effect
NCc1ccc(NC(=O)c2ccc(C(F)(F)F)cc2O)cc1,TMPRSS11D,"enzyme activity, fluorogenic substrate",,"10 µM, with: Boc-VPR-AMC",,< 20%
COc1cc(Cc2c[nH]c3ncc(C(F)(F)F)cc23)cc(OC)c1,FGFR1,"enzyme activity, inhibitor",,0.1 µM,,95%
C=C(C)c1cc(NNC(=N)N)c(C)cc1NNC(=N)N,Mycosin-1,"protease activity, inhibitor, quenched fluorescent peptide",,"150 µM, with: 20 µM fluorogenic peptide substrate",baseline: DMSO control,71.5%
COc1cc2ccc(C(=O)Nc3ccc(CN)cc3)c(O)c2cc1OC,TMPRSS11D,"enzyme activity, fluorogenic substrate",,"10 µM, with: Boc-VPR-AMC",,< 20%
CCn1c2ccccc2c2cc(CNCCCn3ccnc3)ccc21,"DRD2 (Homo sapiens, UniProt P14416)","cell-free assay, inhibitor",,10 µM,,17.6%
NCc1ccc(NC(=O)c2ccc3ccccc3c2O)cc1,TMPRSS11D,"enzyme activity, inhibitor, fluorescence",,10 µM,,36.8%
CCS(=O)(=O)c1ccccc1C(=O)N1CCN(c2nc3ccc(F)cc3s2)C[C@@H]1C,"Acid ceramidase (ASAH1, Homo sapiens, UniProt Q13510)","enzyme activity, inhibitor",,concentration not given,,no effect
O=C(O[C@H](CO)C(F)(F)F)N1C[C@@H]2[C@H](C1)[C@H]2c1ccn(-c2ccc(F)nc2)n1,"Faah (Mus musculus, UniProt O08914)",ABPP,mouse brain lysate,0.2 µmol/L,,no inhibition
OC(c1cc(F)ccc1F)c1c[nH]c2ncc(C(F)(F)F)cc12 (stereo not shown),FGFR1,"enzyme activity, inhibitor",,1 µM,,61%
O=C(O)c1ccc2nc(-c3ccc(OCC(O)COc4ccc(-c5nc6ccc(C(=O)O)cc6[nH]5)cc4)cc3)[nH]c2c1,"DHFR (Homo sapiens, UniProt P00374)",enzyme activity,,concentration not given,,no inhibition
N#Cc1c(NC(=O)CCl)sc2c1CCC(c1ccccc1)C2 (stereo not shown),"LDHA (Homo sapiens, UniProt P00338)","enzyme activity, inhibitor, fluorescence",,100 µg/mL,,24.9%
NCc1ccc(NC(=O)c2cc3ccccc3cc2O)cc1,TMPRSS11D,"enzyme activity, fluorogenic substrate",,"10 µM, with: Boc-VPR-AMC",,< 20%
OC(c1cccc(Cl)c1)c1c[nH]c2ncc(C(F)(F)F)cc12 (stereo not shown),FGFR1,"enzyme activity, inhibitor",,0.1 µM,,1%
NCc1ccc(NC(=O)c2ccc(F)cc2O)cc1,TMPRSS2,"enzyme activity, inhibitor",,"10 µM, with: Boc-QAR-AMC",,< 20%
Cc1ccnc(NS(=O)(=O)c2ccc(NC(=O)c3cc(-c4ccccc4C)nc4ccccc34)cc2)n1,"PPIA (Homo sapiens, UniProt P62937)","enzyme activity, inhibitor",,10 µM,,11.2%
Oc1c(C(Nc2nc3ccccc3s2)c2ccccc2OCc2ccccc2)ccc2cccnc12 (stereo not shown),GP1 NS2B-NS3 protease,"enzyme activity, inhibitor",,"10 µM, 0.1% CHAPS, with: tetrapeptide substrate",,70.2 ± 1.06%
O=C1N[C@@H](CO)C[C@H](O)c2ccccc21 (relative stereo),"PARP16 (Homo sapiens, UniProt Q8N5Y8)","enzyme activity, inhibitor",,10 µM,,95%
CCCCOC(=O)NS(=O)(=O)c1sc(CC(C)C)cc1-c1cc(C)cc(Cn2ccnc2)c1,AGTR1,"ligand displacement, radioligand",,"10 µM, cell membranes",,26%
CCc1c(-c2c3c(N)n[nH]c(=O)c3nn2-c2ccccc2)oc2ccccc12,FGFR1,"enzyme activity, inhibitor, ELISA",,0.1 µM,,0%
Oc1c(C(Nc2nc3ccccc3s2)c2cccc(OCc3ccccc3)c2)ccc2cccnc12 (stereo not shown),GP1 NS2B-NS3 protease,"enzyme activity, inhibitor",,"25 µM, 0.1% CHAPS, with: tetrapeptide substrate",,96.79 ± 0.35%
Cc1c(-c2c(C#N)c(C(=O)NN)nn2-c2ccccc2)oc2ccccc12,FGFR1,"enzyme activity, inhibitor, ELISA",,1 µM,,12.4%
OC(c1ccc(OCc2ccccc2)cc1)c1c[nH]c2ncc(C(F)(F)F)cc12 (stereo not shown),FGFR1,"enzyme activity, inhibitor",,1 µM,,25%
CCOC(=O)NS(=O)(=O)c1sc(CC(C)C)cc1-c1ccc2c(c1)CN(CC)C(=O)C2,AGTR1,"ligand displacement, radioligand",,"10 µM, cell membranes",,11%
NCCCCNC(=O)COc1cccc2c1C(=O)N(C1CCC(=O)NC1=O)C2=O (stereo not shown),"von Hippel-Lindau disease tumor suppressor, with elongin B/C (VHL, Homo sapiens, UniProt P40337)",TR-FRET,,"2.1 pM to 30 µM, 90 min",,inactive
CCCCOC(=O)NS(=O)(=O)c1sc(CC(C)C)cc1-c1cccc(CN(Cc2cccs2)C(C)=O)c1,AGTR1,"ligand displacement, radioligand",,"10 µM, cell membranes",,30%
O=C(NCCCn1ccnc1)OC(Cn1ccnc1)c1ccc(F)cc1 (stereo not shown),"CYP51 (Trypanosoma cruzi, UniProt Q7Z1V1)",enzyme activity,,"concentration not given, with: eburicol",,no inhibition
